# Experimental data of several laboratories.
# “And” joins repeats or separate records; there may be more than shown. Numbers after ± are the reported error.
# Organism: Escherichia coli
Structure (SMILES),assay,test system,setting,scale,measurement,result
CNC(=O)c1c(N(C)N=O)ncn1C,"mutagenicity, Ames plate incorporation",WP2 uvrA pKM101,"500 µg/plate, without S9, methanol",,revertant colonies per plate,118 ± 9
Cc1cc(C(=O)NC(C)(C)COc2cccc3c2C(N)=NS(=O)(=O)N3)cc(C)n1,"Ames test, initial",WP2 uvrA,"1500 µg/plate, with: rat liver S9",reference: solvent control,revertant ratio,1.1
CC(=O)N1CCC(C(=O)N2CCN3C(=O)c4cc(-c5ccccc5)ccc4NC(=O)C3C2)CC1 (stereo not drawn),,WP2 uvrA,"158 µg/plate, with rat liver S9",,revertants per plate,26
Nc1ccc2cc3ccccc3cc2c1,preincubation Ames test,WP2 uvrA,"100 µg per plate, with: rat liver S9",,revertant colonies per plate,131
Nc1ccc2cc3ccccc3cc2c1,,WP2 uvrA,"20 µg/plate, with: rat liver S9",reference: vehicle control,revertant fold increase,5.5
NCC(=O)O,,MG1655,,,half-life,16.2 h
COS(C)(=O)=O,Ames test,WP2 uvrA pKM101,"0.2 µg/well, 48 h, without S9",,revertant colonies,480 colonies/well and 624 colonies/well and 560 colonies/well
CN(CC(C)(C)C)N=O,plate incorporation,"WP2uvrA pKM101, methanol","3750 µg/plate, without S9",,revertant colonies per plate,141 and 147
COS(C)(=O)=O,"Ames test, confirmatory",WP2 uvrA,1000 µg/plate,reference: solvent control,revertant ratio,10.7
CC(C)N(N=O)C(C)C,"mutagenicity, Ames plate incorporation",WP2 uvrA pKM101,"2500 µg/plate, without S9, methanol",,revertant colonies per plate,141 ± 16
Nc1ccc2cc3ccccc3cc2c1,"Ames test, initial",WP2 uvrA,"15 µg/plate, with: rat liver S9",reference: solvent control,revertant ratio,9.5
COS(C)(=O)=O,preincubation Ames test,WP2 uvrA,1 µL per plate,,revertant colonies per plate,1090
